Published values gathered from unrelated publications.
Organism: Klebsiella pneumoniae

CC[C@H](C)[C@H](NC(=O)[C@H](CCCNC(=N)N)NC(=O)[C@@H](NC(=O)[C@@H](NC(=O)[C@H](CCCNC(=N)N)NC(=O)[C@H](CCCCN)NC(=O)[C@H](Cc1ccccc1)NC(=O)[C@H](CCCNC(=N)N)NC(=O)[C@H](CCCCN)NC(=O)[C@@H](NC(=O)[C@@H](N)CCCCN)[C@@H](C)CC)[C@@H](C)CC)C(C)C)C(=O)N[C@@H](CCCCN)C(=O)N[C@@H](Cc1ccccc1)C(=O)N[C@@H](CC(C)C)C(=O)N[C@@H](CCCNC(=N)N)C(=O)N[C@H](C(=O)N[C@H](C(=O)N[C@@H](CCCNC(=N)N)C(=O)N[C@@H](CCCNC(=N)N)C(N)=O)C(C)C)C(C)C  MIC (broth microdilution; 10145): 7.5 µg/mL
N=C(N)NCCC[C@@H]1NC(=O)[C@H](CCCNC(=N)N)NC(=O)[C@@H](CCCNC(=N)N)NC(=O)[C@H](C(c2ccccc2)c2ccccc2)NC(=O)[C@H](C(c2ccccc2)c2ccccc2)NC(=O)[C@H](C(c2ccccc2)c2ccccc2)NC(=O)[C@H](CCCNC(=N)N)NC1=O  MIC (ATCC 700603, ESBL SHV-18): 64 µg/mL
CC[C@H](C)[C@H](NC(=O)[C@@H](CCCNC(=N)N)NC(=O)[C@H](CCCNC(=N)N)NC(=O)[C@H](CC(C)C)NC(=O)[C@H](Cc1c[nH]c2ccccc12)NC(=O)[C@H](CCCNC(=N)N)NC(=O)[C@@H]1CCCN1C(=O)[C@H](CCCNC(=N)N)NC(=O)[C@@H]1CCCN1C(=O)[C@H](CC(C)C)NC(=O)[C@H](Cc1ccc(O)cc1)NC(=O)[C@@H]1CCCN1C(=O)[C@@H]1CCCN1C(=O)[C@H](CCCCN)NC(=O)[C@H](CC(=O)O)NC(=O)[C@@H](N)C(C)C)C(=O)N[C@@H](Cc1ccc(O)cc1)C(=O)N[C@@H](CC(N)=O)C(=O)N[C@H](CCCNC(=N)N)C(N)=O  MIC (broth microdilution; DSM 681; 18 h, 37 °C, 25% MHB2): 4 µg/mL
C#CCOc1ccc(CN[C@@]2(C)C[C@H](O[C@H]3[C@H](Oc4c5cc6cc4Oc4ccc(cc4Cl)[C@@H](O)[C@@H](NC(=O)[C@@H](CC(C)C)NC)C(=O)N[C@@H](CC(N)=O)C(=O)N[C@H]6C(=O)N[C@H]4C(=O)N[C@H](C(=O)N[C@H](C(=O)O)c6cc(O)cc(O)c6-c6cc4ccc6O)[C@H](O)c4ccc(c(Cl)c4)O5)O[C@H](CO)[C@@H](O)[C@@H]3O)O[C@@H](C)[C@H]2O)cc1OC  MIC (broth microdilution; ATCC 27736, cation-adjusted Mueller-Hinton broth; 18 to 20 h, 37 °C, 0.002% polysorbate 80): > 128 µg/mL
CC1(C)[C@H](NC(=O)/C(=N\OC2(C(=O)O)CCCCC2)c2csc(N)n2)C(=O)N1OS(=O)(=O)O  MIC (agar dilution; 09-20, NDM-1): 2 µg/mL
COc1ccc2ccc(O)c(/C=N/[C@H]3CCCC[C@H]3/N=C/c3cccc(OC)c3O)c2c1  MIC (bacterial growth, broth microdilution; carbapenem-resistant): > 40 µM
CCn1c(-c2ccc(F)cc2)c(-c2ccc(F)cc2)n(CCOC)c1=[Se]  MIC (broth microdilution; carbapenem-resistant BAA-1705; 24 h): > 40 µM
COc1ccc2ccc(O)c(/C=N/[C@H]3CCCC[C@H]3/N=C/c3cccc(F)c3O)c2c1  MIC (bacterial growth, broth microdilution; carbapenem-resistant): > 40 µM
CN[C@@H]1[C@H](O)[C@H](NC)[C@H]2O[C@]3(O)[C@H](O[C@@H]2[C@H]1O)O[C@H](C)C[C@H]3NC(=O)Cc1cc(Cl)ccn1  MIC (microbial growth, broth dilution; ATCC33495): > 200 µg/mL
CC[C@H](C)[C@H](NC(=O)[C@H](CCCCN)NC(=O)[C@H](CCCCN)NC(=O)[C@H](Cc1ccccc1)NC(=O)[C@H](Cc1ccccc1)NC(=O)[C@H](CCCCN)NC(=O)[C@H](CCCCN)NC(=O)[C@H](Cc1ccccc1)NC(=O)[C@H](CCCNC(=N)N)NC(=O)[C@@H](N)CCCCN)C(=O)N[C@@H](CCCCN)C(=O)N[C@@H](CCCCN)C(=O)N[C@@H](CO)C(=O)N[C@H](C(=O)N[C@@H](CCCCN)C(=O)N[C@@H](CCCCN)C(=O)N[C@@H](CCCNC(=N)N)C(=O)N[C@H](C(=O)N[C@@H](CCCCN)C(=O)N[C@@H](CCCCN)C(=O)N[C@@H](CC(C)C)C(=O)N[C@@H](Cc1ccccc1)C(=O)N[C@@H](CCCCN)C(=O)N[C@@H](CCCCN)C(=O)N1CCC[C@H]1C(=O)N[C@@H](CCCNC(=N)N)C(=O)N[C@H](C(=O)N[C@H](C(=O)N1CCC[C@H]1C(=O)N[C@H](C(=O)N[C@@H](CO)C(=O)N[C@H](C(=O)N1CCC[C@H]1C(=O)N[C@@H](Cc1ccccc1)C(=O)O)[C@@H](C)CC)[C@@H](C)CC)[C@@H](C)CC)C(C)C)C(C)C)C(C)C  MIC (broth microdilution; K1 clinical isolate; 20 h): 4 µg/mL
CC[C@H](C)[C@H](NC(=O)[C@@H](CCCNC(=N)N)NC(=O)[C@H](CCCNC(=N)N)NC(=O)[C@@H]1CCCN1C(=O)[C@@H]1CCCN1C(=O)[C@H](CCCNC(=N)N)NC(=O)[C@@H]1CCCN1C(=O)[C@H](CCCNC(=N)N)NC(=O)[C@@H]1CCCN1C(=O)[C@H](CC(C)C)NC(=O)[C@H](Cc1ccc(O)cc1)NC(=O)[C@@H]1CCCN1C(=O)[C@@H]1CCCN1C(=O)[C@H](CCCCN)NC(=O)[C@H](CC(=O)O)NC(=O)[C@@H](N)C(C)C)C(=O)N[C@@H](Cc1ccc(O)c([N+](=O)[O-])c1)C(=O)N[C@@H](CC(N)=O)C(=O)N[C@H](CCCNC(=N)N)C(N)=O  MIC (broth microdilution; DSM 681; 18 h, 37 °C, 25% MHB2): 8 µg/mL
CC1(C)C(NC(=O)C(=NOCC(=O)N2CC3CCCC3C2C(=O)O)c2csc(N)n2)C(=O)N1OS(=O)(=O)O (centres unmarked)  MIC (agar dilution; 2146, NDM-1): > 64 µg/mL
N=C(N)NCCC[C@@H]1NC(=O)[C@H](CCCNC(=N)N)NC(=O)[C@H](CCCNC(=N)N)NC(=O)[C@@H](CCCNC(=N)N)NC(=O)[C@H](Cc2ccc3ccccc3c2)NC(=O)[C@H](Cc2ccc3ccccc3c2)NC(=O)[C@H](Cc2ccc3ccccc3c2)NC1=O  MIC (1188718, multidrug-resistant): > 64 µg/mL
CC[C@H](C)[C@H](NC(=O)[C@@H](CCCNC(=N)N)NC(=O)[C@H](CCCNC(=N)N)NC(=O)[C@@H]1CCCN1C(=O)[C@@H]1CCCN1C(=O)[C@H](CCCNC(=N)N)NC(=O)[C@@H]1CCCN1C(=O)[C@H](CCCNC(=N)N)NC(=O)[C@@H]1CCCN1C(=O)[C@H](CC(C)C)NC(=O)[C@H](Cc1c[nH]cn1)NC(=O)[C@@H]1CCCN1C(=O)[C@@H]1CCCN1C(=O)[C@H](CCCCN)NC(=O)[C@H](CC(=O)O)NC(=O)[C@@H](N)C(C)C)C(=O)N[C@@H](Cc1ccc(O)cc1)C(=O)N[C@@H](CC(N)=O)C(=O)N[C@H](CCCNC(=N)N)C(N)=O  MIC (broth microdilution; DSM 681; 18 h, 37 °C, 25% MHB2): 4 µg/mL
CCCCCCCC(=O)N[C@@H](CCN)C(=O)N[C@H](C(=O)N[C@@H](CCN)C(=O)N[C@H]1CCNC(=O)[C@H]([C@@H](C)O)NC(=O)[C@H](CCN)NC(=O)[C@H](CCN)NC(=O)[C@H](CCc2ccccc2)NC(=O)[C@@H](CC(C)C)NC(=O)[C@H](CCN)NC1=O)[C@@H](C)O  MIC (broth microdilution; ATCC 19606): < 0.125 µg/mL
C[C@H](N)[C@@H](CCCCCCCCCCCCCCC(=O)CCCCCCC[C@@H](O)[C@@H](C)N)O[C@@H]1O[C@H](CO)[C@H](O)[C@H](O)[C@H]1O  MIC (resazurin): 7.73 µM
CC1(C)[C@H](NC(=O)/C(=N\OCC(=O)N2CCC(C(=O)O)C2)c2nsc(N)n2)C(=O)N1OS(=O)(=O)O (some centres unmarked)  MIC (agar dilution; 2146, NDM-1): > 64 µg/mL
COc1ccc(/C=N/[C@@H]2CCCC[C@@H]2/N=C/c2c(O)ccc3ccc(OC)cc23)c(O)c1  MIC (bacterial growth, broth microdilution; carbapenem-resistant): > 40 µM
CC[C@H](C)[C@H](NC(=O)[C@@H](CCCNC(=N)N)NC(=O)[C@H](CCCNC(=N)N)NC(=O)[C@H](C)NC(=O)[C@H](Cc1c[nH]c2ccccc12)NC(=O)[C@H](CCCNC(=N)N)NC(=O)[C@@H]1CCCN1C(=O)[C@H](CCCNC(=N)N)NC(=O)[C@@H]1CCCN1C(=O)[C@H](CC(C)C)NC(=O)[C@H](Cc1ccc(O)cc1)NC(=O)[C@@H]1CCCN1C(=O)[C@@H]1CCCN1C(=O)[C@H](CCCCN)NC(=O)[C@H](CC(=O)O)NC(=O)[C@@H](N)C(C)C)C(=O)N[C@@H](Cc1ccc(O)cc1)C(=O)N[C@@H](CC(N)=O)C(=O)N[C@H](CCCNC(=N)N)C(N)=O  MIC (broth microdilution; DSM 681; 18 h, 37 °C, 25% MHB2): 4 µg/mL
C#CCNC(=O)C(C)(C)O/N=C(\C(=O)N[C@@H]1C(=O)N(S(=O)(=O)O)[C@H]1C)c1csc(N)n1  MIC (agar dilution; 09-20, NDM-1): 4 µg/mL
CCCCCCCC(=O)N[C@@H](CCN)C(=O)N[C@H](C(=O)N[C@@H](CCN)C(=O)N[C@H]1CCNC(=O)[C@H]([C@@H](C)O)NC(=O)[C@H](CCN)NC(=O)[C@H](CCN)NC(=O)[C@H](Cc2ccc(Br)cc2)NC(=O)[C@@H](CC(C)C)NC(=O)[C@H](CCN)NC1=O)[C@@H](C)O  MIC (broth microdilution; ATCC 13883, colistin-susceptible): 4 to 8 µg/mL
C#CCO/N=C(\C(=O)N[C@@H]1C(=O)N(OS(=O)(=O)O)C1(C)C)c1nsc(N)n1  MIC (agar dilution; 09-20, NDM-1): 32 µg/mL
CC[C@H](C)[C@H](NC(=O)[C@H](C)NC(=O)[C@@H](NC(=O)[C@H](CC(=O)O)NC(=O)[C@H](CCCCN)NC(=O)[C@H](CO)NC(=O)[C@@H](NC(=O)[C@H](CC(N)=O)NC(=O)[C@H](C)NC(=O)[C@@H](NC(=O)[C@H](CCC(=O)O)NC(=O)[C@H](CCCCN)NC(=O)[C@@H](NC(=O)[C@@H](NC(=O)[C@H](Cc1c[nH]cn1)NC(=O)[C@H](CCCCN)NC(=O)[C@@H](NC(=O)[C@H](CCCCN)NC(=O)[C@H](CCCCN)NC(=O)[C@@H](NC(=O)[C@H](CC(C)C)NC(=O)[C@H](CCCCN)NC(=O)[C@H](CC(N)=O)NC(=O)[C@H](Cc1ccccc1)NC(=O)[C@H](CCCNC(=N)N)NC(=O)[C@H](CCCCN)NC(=O)[C@H](CCCNC(=N)N)NC(=O)[C@H](Cc1ccccc1)NC(=O)CN)C(C)C)C(C)C)[C@@H](C)O)[C@@H](C)CC)[C@@H](C)O)C(C)C)C(C)C)C(=O)N[C@H](C(=O)N[C@@H](C)C(=O)NCC(=O)N[C@@H](CO)C(=O)NCC(=O)N[C@H](C(=O)N[C@@H](C)C(=O)N[C@H](C(=O)NCC(=O)N[C@@H](C)C(=O)N[C@@H](C)C(=O)N[C@@H](CCSC)C(N)=O)C(C)C)C(C)C)C(C)C  MIC (broth microdilution; RKI 19/16, CAMHB with 10% mouse serum; 150 mM NaCl): 1 µg/mL
